Published values pooled from the literature.
Compare with care: the assays were run in different laboratories.
Target: Ankyrin repeat and protein kinase domain-containing protein 1 (ANKK1, Homo sapiens, UniProt Q8NFD2)

SMILES	observed	mode	method	tested at	relative to	measurement	result
CCN1CCN(Cc2ccc(C(=O)Nc3ccc(C)c(NCc4cnc5[nH]ccc5c4OC)c3)cc2C(F)(F)F)CC1	binding	–	competition with immobilised ligand	1 µM	–	remaining binding	5.2%
CNC1C[S+]2CC[S+]3CC[S+](C1)[Ru-4]321([N]=C=S)[n]2c3ccc(OC)cc3c3c4c(c5cc(F)c[n+]1c5c32)C(=O)NC4=O (stereo not shown)	–	–	KinomeScan	0.1 µM	untreated	remaining binding	92%
Cc1cnc2nc1Nc1cccc(c1)COC/C=C/COCc1cc(ccc1OCCN1CCOCC1)N2	binding	–	–	0.1 µM	–	remaining binding	96%
COc1cc(Nc2nccc(-c3cnn4nc(OC)ccc34)n2)cc(C(F)(F)F)c1	binding	–	competition with immobilised ligand	1 µM	–	remaining binding	78%
Cc1ccc(-c2c(/C=C(\C#N)C(=O)NC(C)C)n(CCCO)c3ncnc(N)c23)cc1	cell-free assay	–	competition with immobilised ligand	1 µM	–	remaining binding	90%
COc1cc(Nc2nc(C)cc(-c3cnn4nc(OC)ccc34)n2)cc(C(F)(F)F)c1	–	inhibitor	–	1 µM	control	remaining activity	70%
C=CC(=O)N1CCc2ccc(-n3c(=O)ccc4cnc5ccc(-c6cnn(C)c6)cc5c43)cc21	–	–	KINOMEscan	1 µM	DMSO control	remaining binding	51%
Nc1ncc2c(n1)-c1c([nH]c3ccc(C4=CCOCC4)cc13)CCC2	binding	–	competition with immobilised ligand	1 µM	–	remaining binding	100%
COc1c(Cl)cccc1Nc1c(-c2ccncc2C#C[C@@]2(C)CCCN2C(=O)/C=C/CN(C)C)[nH]c2c1C(=O)NCC2	binding	–	competition with immobilised ligand	3 µM	–	remaining binding	77%
C=CC(=O)N1Cc2nc(-c3cc(-c4cc(Cl)cnc4Cl)c(F)cc3F)n(-c3ccncn3)c2C1	cell-free assay	–	–	1 µM	–	inhibition	-2.2%
C=CC(=O)N1CCCC(n2c(=O)c3ncccc3n(Cc3ccc(Oc4ccccc4)cc3)c2=O)C1 (stereo not shown)	cell-free assay	–	competition with immobilised ligand	1 µM	–	remaining binding	99%
CNC(=O)C1CCN(c2cc(C)c(F)cc2NC(=O)c2ccc(-c3cc(O)ccc3C)c(C)c2)CC1	binding	–	competition with immobilised ligand	1 µM	–	remaining binding	100%
CC(C)=CC1OC(C)(C)C2C=C3C(=O)C(Cl)=CC(O)C3C3C(O)C4OC4C(=O)C132 (stereo not shown)	cell-free assay	–	competition with immobilised ligand	10 µM	–	remaining binding	59%

For quick reference, copied from above:
SMILES	observed	mode	method	tested at	relative to	measurement	result
Cc1cnc2nc1Nc1cccc(c1)COC/C=C/COCc1cc(ccc1OCCN1CCOCC1)N2	binding	–	–	0.1 µM	–	remaining binding	96%
